Measured values pooled from the literature.
Each line is one published result; not all experiments were run side by side. ± marks the error that the study gave.
Tln2: Tln2 312-408 (Mus musculus, UniProt Q71LX4)
UniProt Q71LX4, sequence (whole entry, looked up): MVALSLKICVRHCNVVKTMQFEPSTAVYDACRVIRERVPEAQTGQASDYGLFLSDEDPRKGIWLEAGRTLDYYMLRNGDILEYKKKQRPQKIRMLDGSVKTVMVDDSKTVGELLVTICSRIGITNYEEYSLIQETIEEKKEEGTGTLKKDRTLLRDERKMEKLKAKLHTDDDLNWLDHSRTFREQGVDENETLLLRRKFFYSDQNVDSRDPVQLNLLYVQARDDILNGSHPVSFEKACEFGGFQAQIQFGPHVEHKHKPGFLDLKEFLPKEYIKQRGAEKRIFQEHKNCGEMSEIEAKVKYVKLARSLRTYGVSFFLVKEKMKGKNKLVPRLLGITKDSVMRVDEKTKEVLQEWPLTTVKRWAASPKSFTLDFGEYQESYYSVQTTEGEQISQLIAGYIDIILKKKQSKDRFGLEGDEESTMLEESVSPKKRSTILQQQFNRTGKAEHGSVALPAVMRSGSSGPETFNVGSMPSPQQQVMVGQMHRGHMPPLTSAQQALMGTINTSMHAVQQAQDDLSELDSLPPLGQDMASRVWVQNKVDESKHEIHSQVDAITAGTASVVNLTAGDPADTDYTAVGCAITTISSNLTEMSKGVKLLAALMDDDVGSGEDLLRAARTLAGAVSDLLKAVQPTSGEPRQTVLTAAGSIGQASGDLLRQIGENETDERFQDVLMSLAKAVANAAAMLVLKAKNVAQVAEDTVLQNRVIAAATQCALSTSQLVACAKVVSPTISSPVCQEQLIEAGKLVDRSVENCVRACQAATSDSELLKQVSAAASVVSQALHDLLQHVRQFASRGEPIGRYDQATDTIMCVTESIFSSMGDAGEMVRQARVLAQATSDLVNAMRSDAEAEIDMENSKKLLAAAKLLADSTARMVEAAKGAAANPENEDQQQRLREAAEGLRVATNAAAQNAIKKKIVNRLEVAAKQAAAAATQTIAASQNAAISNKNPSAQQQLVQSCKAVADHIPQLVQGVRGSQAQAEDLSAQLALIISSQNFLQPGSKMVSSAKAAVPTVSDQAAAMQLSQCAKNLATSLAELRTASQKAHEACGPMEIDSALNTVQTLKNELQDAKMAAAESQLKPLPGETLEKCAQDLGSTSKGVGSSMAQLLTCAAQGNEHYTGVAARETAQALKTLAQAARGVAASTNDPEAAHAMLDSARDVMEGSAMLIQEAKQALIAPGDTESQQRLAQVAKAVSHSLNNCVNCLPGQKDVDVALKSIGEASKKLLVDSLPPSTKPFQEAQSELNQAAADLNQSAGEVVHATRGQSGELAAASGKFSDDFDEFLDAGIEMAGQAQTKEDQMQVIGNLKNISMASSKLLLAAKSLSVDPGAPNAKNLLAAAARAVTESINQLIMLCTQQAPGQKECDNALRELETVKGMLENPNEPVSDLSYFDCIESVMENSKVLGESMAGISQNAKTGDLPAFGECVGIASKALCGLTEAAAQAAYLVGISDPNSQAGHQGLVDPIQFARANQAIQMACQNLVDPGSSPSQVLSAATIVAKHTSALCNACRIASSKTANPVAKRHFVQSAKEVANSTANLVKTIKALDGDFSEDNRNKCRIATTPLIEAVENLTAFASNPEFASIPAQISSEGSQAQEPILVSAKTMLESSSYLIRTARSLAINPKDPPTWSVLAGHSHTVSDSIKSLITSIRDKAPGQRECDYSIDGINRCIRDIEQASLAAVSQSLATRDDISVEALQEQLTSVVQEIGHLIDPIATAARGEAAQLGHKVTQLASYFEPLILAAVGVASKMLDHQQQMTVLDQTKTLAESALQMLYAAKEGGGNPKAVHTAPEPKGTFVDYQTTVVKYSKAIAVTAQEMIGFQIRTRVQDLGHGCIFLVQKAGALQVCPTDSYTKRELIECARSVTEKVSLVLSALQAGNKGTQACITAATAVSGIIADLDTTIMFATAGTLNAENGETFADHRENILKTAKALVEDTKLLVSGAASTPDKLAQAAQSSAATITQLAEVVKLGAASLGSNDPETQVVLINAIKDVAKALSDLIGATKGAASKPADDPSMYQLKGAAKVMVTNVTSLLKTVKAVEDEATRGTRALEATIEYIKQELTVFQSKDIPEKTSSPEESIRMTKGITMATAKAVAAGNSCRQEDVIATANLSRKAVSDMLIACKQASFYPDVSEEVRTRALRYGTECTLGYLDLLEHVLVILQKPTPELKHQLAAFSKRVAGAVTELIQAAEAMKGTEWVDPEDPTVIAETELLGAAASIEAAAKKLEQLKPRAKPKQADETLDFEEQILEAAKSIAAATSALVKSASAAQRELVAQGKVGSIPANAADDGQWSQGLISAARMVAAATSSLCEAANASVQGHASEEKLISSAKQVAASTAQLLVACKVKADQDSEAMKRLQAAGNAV
B1: SMARCD1 SWIFT domain (Homo sapiens); chain IKQKRKLRIFISNTFNPAKSDAEDGEGTVASWELRVEGRLLEDSALSKYDATKQKRKFSSFFKSLVIELDKDLYGPDNHLVEWHRTATTQETDGFQVKRPGDVNVRCTVLLMLDYQPPQFMPPEPIIINHVISVDPNDQKKTACYDIDVEVDDTL
B2: EFR3A 721-791 (Homo sapiens, UniProt Q14156); chain SNTEEITFEALKKAIDTSGMEEQEKEKRRLVIEKFQKAPFEEIAAQCESKANLLHDRLAQILELTIRPPPS
B3: SRS2 1107-1174 L1156A (Saccharomyces cerevisiae, UniProt P12954); N-terminal cysteine BODIPY-FL; chain CHNPDDTTVDNRPIISNAKFLADAAMKKTQKFSKKVKNEPASSQMDIFSQASRAKKKSKLNNGEIIVID
B4: UPF2 761-1054 (Homo sapiens, UniProt Q9HAU5); sequence looked up; chain EKTVKKKRPPLQEYVRKLLYKDLSKVTTEKVLRQMRKLPWQDQEVKDYVICCMINIWNVKYNSIHCVANLLAGLVLYQEDVGIHVVDGVLEDIRLGMEVNQPKFNQRRISSAKFLGELYNYRMVESAVIFRTLYSFTSFGVNPDGSPSSLDPPEHLFRIRLVCTILDTCGQYFDRGSSKRKLDCFLVYFQRYVWWKKSLEVWTKDHPFPIDIDYMISDTLELLRPKIKLCNSLEESIRQVQDLEREFLIKLGLVNDKDSKDSMTEGENLEEDEEEEEGGAETEEQSGNESEVNE
B5: ADAMTS13 75-1427 (Homo sapiens, UniProt Q76LX8); chain AAGGILHLELLVAVGPDVFQAHQEDTERYVLTNLNIGAELLRDPSLGAQFRVHLVKMVILTEPEGAPNITANLTSSLLSVCGWSQTINPEDDTDPGHADLVLYITRFDLELPDGNRQVRGVTQLGGACSPTWSCLITEDTGFDLGVTIAHEIGHSFGLEHDGAPGSGCGPSGHVMASDGAAPRAGLAWSPCSRRQLLSLLSAGRARCVWDPPRPQPGSAGHPPDAQPGLYYSANEQCRVAFGPKAVACTFAREHLDMCQALSCHTDPLDQSSCSRLLVPLLDGTECGVEKWCSKGRCRSLVELTPIAAVHGRWSSWGPRSPCSRSCGGGVVTRRRQCNNPRPAFGGRACVGADLQAEMCNTQACEKTQLEFMSQQCARTDGQPLRSSPGGASFYHWGAAVPHSQGDALCRHMCRAIGESFIMKRGDSFLDGTRCMPSGPREDGTLSLCVSGSCRTFGCDGRMDSQQVWDRCQVCGGDNSTCSPRKGSFTAGRAREYVTFLTVTPNLTSVYIANHRPLFTHLAVRIGGRYVVAGKMSISPNTTYPSLLEDGRVEYRVALTEDRLPRLEEIRIWGPLQEDADIQVYRRYGEEYGNLTRPDITFTYFQPKPRQAWVWAAVRGPCSVSCGAGLRWVNYSCLDQARKELVETVQCQGSQQPPAWPEACVLEPCPPYWAVGDFGPCSASCGGGLRERPVRCVEAQGSLLKTLPPARCRAGAQQPAVALETCNPQPCPARWEVSEPSSCTSAGGAGLALENETCVPGADGLEAPVTEGPGSVDEKLPAPEPCVGMSCPPGWGHLDATSAGEKAPSPWGSIRTGAQAAHVWTPAAGSCSVSCGRGLMELRFLCMDSALRVPVQEELCGLASKPGSRREVCQAVPCPARWQYKLAACSVSCGRGVVRRILYCARAHGEDDGEEILLDTQCQGLPRPEPQEACSLEPCPPRWKVMSLGPCSASCGLGTARRSVACVQLDQGQDVEVDEAACAALVRPEASVPCLIADCTYRWHVGTWMECSVSCGDGIQRRRDTCLGPQAQAPVPADFCQHLPKPVTVRGCWAGPCVGQGTPSLVPHEEAAAPGRTTATPAGASLEWSQARGLLFSPAPQPRRLLPGPQENSVQSSACGRQHLEPTGTIDMRGPGQADCAVAIGRPLGEVVTLRVLESSLNCSAGDMLLLWGRLTWRKMCRKLLDMTFSSKTNTLVVRQRCGRPGGGVLLRYGSQLAPETFYRECDMQLFGPWGEIVSPSLSPATSNAGGCRLFINVAPHARIAIHALATNMGAGTEGANASYILIRDTHSLRTTAFHGQQVLYWESESSQAEMEFSEGFLKAQASLRGQYWTLQSWVPEMQDPQSWKGKEGT
B6: USP7 207-560 C223A (Homo sapiens, UniProt Q93009); sequence looked up; chain SKKHTGYVGLKNQGATAYMNSLLQTLFFTNQLRKAVYMMPTEGDDSSKSVPLALQRVFYELQHSDKPVGTKKLTKSFGWETLDSFMQHDVQELCRVLLDNVENKMKGTCVEGTIPKLFRGKMVSYIQCKEVDYRSDRREDYYDIQLSIKGKKNIFESFVDYVAVEQLDGDNKYDAGEHGLQEAEKGVKFLTLPPVLHLQLMRFMYDPQTDQNIKINDRFEFPEQLPLDEFLQKTDPKDPANYILHAVLVHSGDNHGGHYVVYLNPKGDGKWCKFDDDVVSRCTKEEAIEHNYGGHDDDLSVRHCTNAYMLVYIRESKLSEVLQAVTDHDIPQQLVERLQEEKRIEAQKRKERQE
B7: designed binder (Homo sapiens); chain MASAARLTMMWEEVTCPICLDPFVEPVSIECGHSFCQECISQVGKGGGSVCPVCRQRFLLKNLRPNRQLANMVNNLKEISQEAREGTQGERCAVHGERLHLFCEKDGKALCWVCAQSRKHRDHAMVPLEEAAQEYQEKLQVALGELRRKQELAEKLEVEIAIKRADWKKTVETQKSRIHAEFVQQKNFLVEEEQRQLQELEKDEREQLRILGEKEAKLAQQSQALQELISELDRRCHSSALELLQEVIIVLERSESWNLKDLDITSPELRSVCHVPGLKKMLRTCAGGGGSGGGGSGGGGSRLDAPSYIEVRAVRDNWAVITWDYPLAEIDGFELTYGIKDVPGDRTTIKLTEDDYYYYIDYLKPDTEYEVSLISRRGDMSSNPAKITFKTGL
B8: RPRD1B 2-135 (Homo sapiens, UniProt Q9NQG5); chain SSFSESALEKKLSELSNSQQSVQTLSLWLIHHRKHAGPIVSVWHRELRKAKSNRKLTFLYLANDVIQNSKRKGPEFTREFESVLVDAFSHVAREADEGCKKPLERLLNIWQERSVYGGEFIQQLKLSMEDSKSP
UniProt Q64663, sequence (whole entry, unmodified, looked up): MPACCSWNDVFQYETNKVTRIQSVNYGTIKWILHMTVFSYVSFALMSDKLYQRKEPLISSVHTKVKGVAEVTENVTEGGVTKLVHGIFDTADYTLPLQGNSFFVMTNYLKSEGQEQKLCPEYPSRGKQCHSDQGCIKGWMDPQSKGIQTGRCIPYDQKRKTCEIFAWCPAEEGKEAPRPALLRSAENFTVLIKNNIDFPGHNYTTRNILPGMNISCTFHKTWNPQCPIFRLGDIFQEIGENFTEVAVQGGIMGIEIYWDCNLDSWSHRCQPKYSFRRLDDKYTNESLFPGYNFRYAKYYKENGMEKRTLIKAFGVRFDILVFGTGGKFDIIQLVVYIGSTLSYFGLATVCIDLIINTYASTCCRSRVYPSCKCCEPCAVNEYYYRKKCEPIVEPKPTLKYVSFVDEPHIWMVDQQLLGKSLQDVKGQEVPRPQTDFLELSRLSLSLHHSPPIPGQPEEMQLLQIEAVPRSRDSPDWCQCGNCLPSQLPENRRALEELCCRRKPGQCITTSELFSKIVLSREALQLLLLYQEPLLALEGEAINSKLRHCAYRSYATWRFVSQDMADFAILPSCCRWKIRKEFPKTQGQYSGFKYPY
UniProt P02786, sequence (whole entry, looked up): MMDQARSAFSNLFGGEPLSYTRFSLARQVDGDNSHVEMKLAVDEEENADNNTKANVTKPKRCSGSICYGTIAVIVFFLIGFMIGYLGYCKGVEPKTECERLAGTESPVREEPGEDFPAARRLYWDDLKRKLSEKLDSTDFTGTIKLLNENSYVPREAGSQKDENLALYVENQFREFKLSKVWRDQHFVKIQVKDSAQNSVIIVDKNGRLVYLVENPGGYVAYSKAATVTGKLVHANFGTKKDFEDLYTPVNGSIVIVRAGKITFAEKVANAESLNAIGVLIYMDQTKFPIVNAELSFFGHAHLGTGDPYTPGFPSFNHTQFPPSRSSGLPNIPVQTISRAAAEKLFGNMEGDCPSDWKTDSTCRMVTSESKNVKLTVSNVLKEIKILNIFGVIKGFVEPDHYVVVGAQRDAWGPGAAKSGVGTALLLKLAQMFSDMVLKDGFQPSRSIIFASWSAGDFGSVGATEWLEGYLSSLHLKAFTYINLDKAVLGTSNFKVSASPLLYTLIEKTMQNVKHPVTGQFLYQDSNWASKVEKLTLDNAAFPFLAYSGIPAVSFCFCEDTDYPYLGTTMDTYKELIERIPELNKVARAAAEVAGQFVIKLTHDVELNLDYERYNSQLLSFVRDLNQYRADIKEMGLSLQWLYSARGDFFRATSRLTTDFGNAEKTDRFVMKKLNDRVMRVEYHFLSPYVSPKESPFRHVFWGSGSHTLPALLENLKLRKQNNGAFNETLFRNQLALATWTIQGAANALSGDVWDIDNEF
UniProt Q5BJF2, sequence (whole entry, looked up): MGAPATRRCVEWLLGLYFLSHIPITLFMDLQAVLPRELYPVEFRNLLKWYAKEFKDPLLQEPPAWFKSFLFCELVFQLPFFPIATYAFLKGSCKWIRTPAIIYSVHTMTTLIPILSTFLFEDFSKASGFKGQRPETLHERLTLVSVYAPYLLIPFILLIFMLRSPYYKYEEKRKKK
UniProt P12314, sequence (whole entry, unmodified, looked up): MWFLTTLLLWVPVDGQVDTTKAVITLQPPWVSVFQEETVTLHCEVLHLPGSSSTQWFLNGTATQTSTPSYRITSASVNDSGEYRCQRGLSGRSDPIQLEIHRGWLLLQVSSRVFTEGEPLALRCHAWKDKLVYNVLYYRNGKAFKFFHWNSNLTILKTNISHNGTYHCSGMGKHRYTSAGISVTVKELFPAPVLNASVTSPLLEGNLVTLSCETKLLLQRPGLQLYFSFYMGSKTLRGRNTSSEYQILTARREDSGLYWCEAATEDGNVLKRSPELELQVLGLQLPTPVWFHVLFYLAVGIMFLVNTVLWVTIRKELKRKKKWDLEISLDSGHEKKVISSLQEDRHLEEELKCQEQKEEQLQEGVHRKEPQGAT
UniProt Q23985, sequence (whole entry, looked up): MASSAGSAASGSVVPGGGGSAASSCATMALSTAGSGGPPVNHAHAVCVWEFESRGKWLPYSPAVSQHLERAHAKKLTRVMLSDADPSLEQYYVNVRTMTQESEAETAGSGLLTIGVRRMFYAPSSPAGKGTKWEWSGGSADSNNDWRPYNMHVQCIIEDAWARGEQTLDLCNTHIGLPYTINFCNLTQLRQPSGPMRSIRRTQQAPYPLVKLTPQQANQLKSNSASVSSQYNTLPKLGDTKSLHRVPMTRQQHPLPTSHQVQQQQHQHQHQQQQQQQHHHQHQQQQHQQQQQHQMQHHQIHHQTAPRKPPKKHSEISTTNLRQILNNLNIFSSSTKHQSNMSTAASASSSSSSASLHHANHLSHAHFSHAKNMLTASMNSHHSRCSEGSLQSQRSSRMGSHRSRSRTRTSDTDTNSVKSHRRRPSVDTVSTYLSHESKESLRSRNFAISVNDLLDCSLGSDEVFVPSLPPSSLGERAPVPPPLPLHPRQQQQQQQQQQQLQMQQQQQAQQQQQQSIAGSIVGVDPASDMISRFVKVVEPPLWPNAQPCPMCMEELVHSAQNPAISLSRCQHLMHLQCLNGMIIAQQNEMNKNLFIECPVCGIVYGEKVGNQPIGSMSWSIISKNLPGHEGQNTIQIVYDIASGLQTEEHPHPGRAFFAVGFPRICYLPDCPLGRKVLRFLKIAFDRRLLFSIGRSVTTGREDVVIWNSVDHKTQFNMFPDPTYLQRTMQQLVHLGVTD

Molecule | target or system | assay | test system | setting | scale | quantity | result
MAML1 fragment (Homo sapiens) | RBPJ 25-449 (Homo sapiens, UniProt Q06330) | ITC | – | – | – | Kd | > 20 µM
GCVRLHESCLGQQVPCCDPAATCYCTGRGDEKLRCYCR (designed peptide AgRP scaffold) | ITGA2B/ITGB3 K562 cells | flow cytometry | designed binder, U87MG | – | – | Kd | > 0.1 µM
colistin | Pseudomonas aeruginosa | broth microdilution | clinical isolate RKI-No_190/15 | – | – | MIC | 1 µg/mL
B1 (SMARCD1 SWIFT domain) | POU2F3 (UniProt Q9UKI9) | MST | – | – | – | Kd | 4.46 ± 2.62 µM
B2 (EFR3A 721-791) | TTC7B/FAM126B 1-308 | BLI | – | – | – | Kd | 0.000298 µM
Notch ankyrin domain H215A/M216A/R218A/R107A (Drosophila) | dx (Drosophila melanogaster, UniProt Q23985) | AUC | – | – | – | Kd | 20.7 µM
VEPQKFAEELIHRLEAVQRT (AXIN1 383-402 (Homo sapiens, UniProt O15169-2); N-terminal HiLyte488; sequence looked up) | Gsk3b 26-383 (Mus musculus, UniProt Q9WV60) | fluorescence polarisation | peptide | – | – | Kd | 0.72 µM
B3 (SRS2 1107-1174 L1156A) | POL30 1-258 K127G (Saccharomyces cerevisiae, UniProt P15873) | fluorescence polarisation | – | apparent | – | Kd | 12.4 µM
SFSFYK (designed peptide; FITC label) | NHERF2 142-254 (Homo sapiens, UniProt Q15599-1) | fluorescence intensity change, fluorescence titration | peptide | – | – | Kd | > 1000 µM
B4 (UPF2 761-1054) | UPF3B (Homo sapiens, UniProt Q9BZI7) | BLI | – | – | – | Kd | 0.0369 µM
PRTARHAPAVRKFSPDLKLLKDVKISVSFTE (DGCR8(96-126), SUMO-tagged) | Enhancer of rudimentary homolog (Homo sapiens, UniProt P84090, T18A) | DGCR8 peptide binding, ITC | peptide | 293 K | – | ΔH | -2.39 ± 0.502 kcal/mol
TIMP1 N-terminal domain | MMP12 catalytic domain 106-263 A252Q/T215V/A173P/A167E/V161I/M156E/Y132K/Y113D (Homo sapiens, UniProt P39900) | BLI | – | – | – | Kd | 0.5 µM
B5 (ADAMTS13 75-1427) | APOB/LDL apoB100 (Homo sapiens) | ELISA | – | – | – | Kd | 0.0108 µM
11-deoxycorticosterone | CYP11B2 (human) | substrate binding, stopped-flow global kinetic fitting | purified enzyme | 3-state induced fit model, together with: 40-fold excess adrenodoxin | – | rate constant k-1 | 36.7 ± 2.13 s⁻¹
GLP-1/MC4 receptor agonist chimeric peptide, D-Ser position 2 | GLP1R (Homo sapiens, UniProt P43220) | competitive binding | CHO-K1 | together with: Ex-4 reference | – | Kd | 0.0099 µM
HEKHHSHREF (HTN1 residues 15-24) | TMEM97 (Homo sapiens, UniProt Q5BJF2) | SPR | peptide | – | – | Kd | > 50 µM

Molecule | target or system | assay | test system | setting | scale | quantity | result
B6 (USP7 207-560 C223A) | ubiquitin, 15N-labelled (UniProt P0CG48) | NMR titration | – | – | – | Kd | 241 ± 39 µM
WASHC2A (Homo sapiens, UniProt Q641Q2) | SNX27 (Homo sapiens, UniProt Q96L92-3) | ITC | – | – | – | Kd | 5.7 ± 1.94 µM
KLLMIIHDRREFAKFEKEKMNAKWDTQENPIYKSPVTTVVNPKYEGK (ITGB1 752-798 G778Q/A786P (Homo sapiens, UniProt P05556-1); sequence looked up) | Tln2 | NMR titration | – | – | – | Kd | 57 µM
Trastuzumab IgG1, CSCS double cysteine mutant (Homo sapiens) | FCGR1A (Homo sapiens, UniProt P12314) | SPR | – | – | – | Kd | 0.00092 µM
Tln1 fragment (Mus musculus) | RIAM TBS peptide 5-25 M11E/F12E/L15E/L16E, stapled, FITC label (Mus musculus, UniProt Q8R5A3) | fluorescence polarization | – | together with: FITC-labeled peptide 20 nM | – | Kd | > 100 µM
B7 (designed binder) | MALT1 (Homo sapiens, UniProt Q9UDY8) | BLI | designed binder | – | – | Kd | > 3.4 µM
B8 (RPRD1B 2-135) | RPAP2 (Homo sapiens, UniProt Q8IXW5) | ITC | – | 25 °C | – | Kd | > 1000 µM
IGHA1 hinge (Homo sapiens) | TFRC 101-760 (Homo sapiens, UniProt P02786) | SPR | – | – | – | Kd | 51.6 µM
KLLMIIHDRREFAKFEKEKMNAKWDTQENPIYKSAINNFKNPNYGRKAGL (ITGB1 752-801 P786A (Homo sapiens, UniProt P05556-5); sequence looked up) | Tln2 | NMR titration | – | – | – | Kd | 176 µM
Peginesatide | UT7/EPO | tyrosine phosphorylation, LC-MS/MS phosphoproteomics, GluC, refers to: TOP2B tyrosine 928 | – | 10 nM, 15 min, together with: 10 U/mL EPO | reference: vehicle | phosphorylation level | 5.3 fold
caspofungin | – | – | adult ICU patients, mITT, serum | dose not given, day 14 | – | bilirubin | 17.9 µmol/L
FGB (Homo sapiens, UniProt P02675) | TWNK (Homo sapiens, UniProt Q96RR1) | cross-linking MS | – | together with: DSSO | – | cross-linked residues | K374 to K607
BzATP | P2X purinoceptor 7 (P2rx7, Rattus norvegicus, UniProt Q64663, Q143A/R125A) | ion current, agonist, two-electrode voltage clamp | Xenopus laevis oocytes | 0.14 µM | reference: highest concentration response | normalized current | 0
FGA (Homo sapiens, UniProt P02671) | SPTBN5 (Homo sapiens, UniProt Q9NRC6) | cross-linking MS | – | together with: DSSO | – | cross-linked residues | K243 to K2277
Histone H4 fragment (Homo sapiens) | YEATS4 19-159 (Homo sapiens, UniProt O95619) | ITC | – | together with: histone H3 peptide | – | Kd | > 1000 µM
